Experimental data of several laboratories.
A part holds a random share of what one study measured. Substitutions count along the parent as printed.

Block 1
Target: Sal-like protein 4, full length isoform B (SALL4, Homo sapiens, UniProt Q9UJQ4-2, residues 1-616)
Technique: universal PBM
Molecule type: double-stranded DNA, one strand shown
Sample: in vitro
Concentration: not given
Notes: 8-mer, flanks averaged, mean of replicates
Reading: higher = stronger binding
Measurement: E-score
Target sequence (chain): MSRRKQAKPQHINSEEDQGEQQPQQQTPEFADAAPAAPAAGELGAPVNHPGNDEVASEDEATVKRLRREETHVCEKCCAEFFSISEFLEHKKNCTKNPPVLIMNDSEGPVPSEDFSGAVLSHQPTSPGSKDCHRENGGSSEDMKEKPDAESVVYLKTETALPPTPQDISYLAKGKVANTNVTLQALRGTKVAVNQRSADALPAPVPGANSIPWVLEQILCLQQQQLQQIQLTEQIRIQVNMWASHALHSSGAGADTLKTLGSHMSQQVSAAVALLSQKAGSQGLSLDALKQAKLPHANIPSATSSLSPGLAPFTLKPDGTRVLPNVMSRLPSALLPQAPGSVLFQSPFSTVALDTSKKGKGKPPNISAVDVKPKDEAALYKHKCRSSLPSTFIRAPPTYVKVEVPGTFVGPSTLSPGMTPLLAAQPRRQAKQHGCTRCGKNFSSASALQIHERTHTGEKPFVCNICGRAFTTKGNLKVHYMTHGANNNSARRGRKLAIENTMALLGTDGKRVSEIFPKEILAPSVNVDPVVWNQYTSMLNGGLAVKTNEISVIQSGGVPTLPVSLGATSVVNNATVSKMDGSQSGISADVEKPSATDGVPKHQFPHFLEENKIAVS
TATTAGAA: 0.357
TGGGCAAA: -0.0615
CACTGAGG: -0.206
CAGATCTG: -0.287
GATAGATC: 0.0554
GAGCAAGC: -0.287
CAAAAAGG: 0.0212
GAACGGGA: -0.163
AGTGCAAG: 0.0882
TGATCTAA: 0.185
AATATCAA: 0.338
ACTAGGCG: 0.0115
CCGGGTAG: -0.28
AGTAGCGG: -0.141
CTGATCTC: -0.188
ACCGTCGC: -0.21
CCCCCCAA: -0.197
CACAAACC: -0.0761
TAGAAACA: 0.164
CAGCGATC: -0.162
CAGATGGA: 0.0115
AAATAGCC: 0.0323
ATATCTTG: 0.284
CCGTAGTA: -0.035
CTCTGCTA: -0.163

Block 2
Target: CCNE1, cyclin fold, Cln2 fusion (human)
Technique: yeast growth competition, sequencing
Sample: yeast
Notes: weak parent motif
Reference: not given
Reading: higher = stronger binding
Measurement: normalised enrichment score
Starting sequence: CDT1 docking peptide (human); PPARRRLRLSVDE
R5K L9F: 0.75
R8A: 0.955
R5A: -0.425
P2A: 0.923
R5K: 0.731
L7A: 1.13
R5A L7A: -0.373
D12A: 1.75
E13A: 1.32

Block 3
Target: Interferon regulatory factor 3, full length, phosphomimetic (IRF3, Homo sapiens, UniProt Q14653, residues 1-427, S386D/S396D/S398D/S402D/T404D/S405D)
Technique: protein-binding microarray
Molecule type: double-stranded DNA, one strand shown
Sample: in vitro
Concentration: 2540 nM top
Notes: 60-bp whole probe
With: salmon DNA 0.4 mg/ml
Reference: random background probes
Reading: higher = stronger binding
Measurement: fitted relative affinity
Shared flanks, not repeated: GCCTAGCAC … GTCTTGATTCGCTTGACGCTGCTG
Residues (chain): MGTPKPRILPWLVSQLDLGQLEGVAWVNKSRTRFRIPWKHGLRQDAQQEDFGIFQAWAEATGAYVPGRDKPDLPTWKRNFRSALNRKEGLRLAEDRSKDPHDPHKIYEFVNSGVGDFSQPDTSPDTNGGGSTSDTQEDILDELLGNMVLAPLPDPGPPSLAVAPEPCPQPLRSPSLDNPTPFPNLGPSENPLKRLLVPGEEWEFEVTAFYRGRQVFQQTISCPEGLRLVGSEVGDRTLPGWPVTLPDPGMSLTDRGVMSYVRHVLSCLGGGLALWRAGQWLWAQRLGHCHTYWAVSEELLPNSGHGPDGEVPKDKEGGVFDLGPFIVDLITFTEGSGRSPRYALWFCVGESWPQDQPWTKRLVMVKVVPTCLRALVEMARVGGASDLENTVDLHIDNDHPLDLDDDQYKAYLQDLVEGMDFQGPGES
TTAGGTATCGGGACTCGGTTAGTGCTA: 1.12 z-score
TCACTTTTTTTTCTTTAACTGTGCTAG: 2.18 z-score
GACGGACTGGGGACTGGGGTCGTGCTA: -0.806 z-score
CACGGACTGGACACTGGGGACGTGCTA: -0.624 z-score
GACGGACTGGGGTATCCGGACGTGCTA: -0.231 z-score
GCCGGTATCGGGTATCGGGACGTGCTA: 2.37 z-score
TTAGAGCTCAGTTTCGATTAGTGCTAG: 3.46 z-score
GACGGACTGGGTTTCGGGCCGTGCTAG: 0.157 z-score
TTAGGTCTCCTTATCCTCTAGTGCTAG: 2.83 z-score
TCAAATTACCTTTTCACACTGTGCTAG: 3.6 z-score
TCATTTCTACTTCTGTTACTGTGCTAG: 2.63 z-score
AGGACTCTGGAGGTTGAGAAAGTGCTA: -1.14 z-score

Block 4
Target: RNA binding protein fox-1 homolog 2, RRM domain, GST-SBP tag (RBFOX2, Homo sapiens, UniProt O43251-10, residues 100-194)
Technique: RNA Bind-n-Seq
Molecule type: RNA
Sample: in vitro
Concentration: 365 nM
Notes: natural RNA segment, single round, ends assumed
Reference: no-protein control
Reading: higher = stronger binding
Measurement: RBNS enrichment (R)
Shared flanks, not repeated: GGGAGUUCUACAGUCCGACGAUC … UGGAAUUCUCGGGUGCCAA
Construct (chain): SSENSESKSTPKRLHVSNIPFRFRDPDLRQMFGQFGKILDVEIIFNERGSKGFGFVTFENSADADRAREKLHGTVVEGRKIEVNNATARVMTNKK
CAUUCUGGACCUCCCAGGAGUUGUUUAAGAAUGAAUCUCUUACACCUCUACUUUUGCCCCUCUACUGUAUAUUAAGCCCAUAGGCUUGUGGGAGGAAGGAGAAUUUCCAU: 0.334
CAUCCAGGCCCCCACCUUCUCGGCUUCUGGUUUUUCUUUCUUUUUGGUAGAACACAACAUCUACCAUUCAGUUAAACCUUCUUUAUCUCCUCCUUUGGCAUCCAUUUUUC: 0.653
AAAAAUCUAUAGCCAGGAGUUUUAUAAACUCACCUGGCACCUACUGAGCUAAAAUAUGCAAAAUCUGAACUAAAAUAUGCAAAAUCACUUUAAUAUAAUUUGACAUUUGA: 0.62
UUUCCACACACUGACCCUUCAGAGUUGGUUCUUUGUUUAUCAGGCCUCCUGACCCUCCCUGCACUUAGCCCUUCCAAGGGACAUCCAGUGGAGCACUGGCAUCUCGAGCU: 0.275
CCAAACACACAAGCUCUCAGCCACAGGCAGCUUCUCCACAGCCCCAGCUUCGCACAGGCUCCUGGAGGGCUGCCUGGGGGAGGCAGACAUGGGAGUGCCAAGGUGGCCAG: 0.241
GGCCCCAUGAAGUGGGUGCCCCACUCACUUCUCUGAGAUCGAACGGACUGUGAAUCCGCUCUUUGUCGGAAGCUGAGCAAGCUGUGGCUUUUUUCCAACUCCGUGUGACG: 0.347
CAUGUGGAUAGAUAGAAGUGUCCUGUUUUGAUACUAAUUUUGAAAGUUGAUUAUCUUCUCUUGAUAUCUUGGUUAAAACUGGCCACAAGAUAAACCAUUUGGAUAUAUUU: 0.335
AGUGGCUUAGGAACAUCAGCAGUGAAGAACUGCCAAGAGUUGGUGAAGGUUGUCUCUUCCGAGGGCCUUCUGAAGACAGGGCUCUUGAACAGACAAGUGGAAGGGCUGUA: 0.365
GCUUGAAUUUCUCCCCAGAAAAUGGGUUUUUCUUUUCUAUUGCAUAGUCAGGCUGCAAAUUUCCAAACUUUUAUGCUUUGCUUCCCUUAUUUAUAAGGGAAUGCCUUUAA: 0.499
AGAGUGUGGAGAUCAGUAACCAUAUCCUGAGGAAAGUGGUGAUUCCCCUGCUAGAUGAUUCACCCACAAACCUUCCCACCCAGGUGUUCUCUGAAAGCUUAGCCUCAAGG: 0.558
UUCUUUACCUGUAUACUAAAAACCCUGUUGUAUUGAUUUUUUUAUAAUAAGCCUUUUUACCUCUGUGUAAAAAAUAUAUAUACAAGUGUAUGAUGUACAUUUUAGUUCUU: 0.459
AAGCAAACUAAGUCAAGAACCGUAGUAUCUGUAGGCACUUAGUUAAGUAUAGCAACUCAAACCAGACCUGCAUCCAUCCGAGACAAACGUUCCUCCUUCACCCUUGUUUU: 0.495

Block 5
Target: UBE2Q2 UBC core domain (UniProt Q8WVN8)
Sequence of UniProt Q8WVN8 (whole entry, looked up): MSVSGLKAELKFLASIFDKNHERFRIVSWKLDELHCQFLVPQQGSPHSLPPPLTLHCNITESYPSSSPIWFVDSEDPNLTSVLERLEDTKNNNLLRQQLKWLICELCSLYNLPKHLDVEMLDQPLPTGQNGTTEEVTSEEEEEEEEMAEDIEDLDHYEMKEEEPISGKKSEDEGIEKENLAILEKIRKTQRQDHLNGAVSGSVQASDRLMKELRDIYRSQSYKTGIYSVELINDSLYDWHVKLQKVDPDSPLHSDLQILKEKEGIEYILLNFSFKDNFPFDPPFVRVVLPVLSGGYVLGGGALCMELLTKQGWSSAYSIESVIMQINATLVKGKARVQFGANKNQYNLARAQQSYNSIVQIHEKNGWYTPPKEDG
Technique: yeast two-hybrid
Sample: yeast
Notes: mostly zero background
Reference: not given
Reading: higher = stronger interaction
Measurement: lacZ reporter activity
B1: RBCK1 RING domain (UniProt Q9BYM8); chain SLVLNTEPAECPVCYSVLAPGEAVVLRECLHTFCRECLQGTIRNSQEAEVSCPFIDNTYSCSGKLLEREIK
B2: TRIM62 RING domain (UniProt Q9BVG3); chain MACSLKDELLCSICLSIYQDPVSLGCEHYFCRRCITEHWVRQEAQGARDCPECRRTFAEPALAP
B3: DZIP3 RING domain (UniProt Q86Y13); chain PDEEEEEEEPCVICHENLSPENLSVLPCAHKFHAQCIRPWLMQQGTCPTCRLHVLLPEEFP
B4: SYTL4 RING domain (UniProt Q96C24); chain RGSQHYSDRTCARCQESLGRLSPKTNTCRGCNHLVCRDCRIQESNGTWRCKVCAKEIELKKAT
B5: ZMIZ2 RING domain (UniProt Q8NF64); chain GTIPGTPGPNGEDGVEQTAIKVSLKCPITFRRIQLPARGHDCRHIQCFDLESYLQLNCERGTWRCPVCNKTALLEGLEVDQYMLGILIYIQNSDYEEITIDPTCSWK
B6: RFWD3 RING domain (UniProt Q6PCD5); chain ASMDEEEGDTCTICLEQWTNAGDHRLSALRCGHLFGYRCISTWLKGQVRKCPQCNKKARHSDIVV
B1 (RBCK1 RING domain): 0
B2 (TRIM62 RING domain): 0
FDGDVDPDLKCALCHKVLEDPLTTPCGHVFCAGCVLPWVVQEGSCPARCRGRLSAKELN (PDZRN3 RING domain (UniProt Q9UPQ7)): 0
YQNEVDDDLVCHICLQPLLQPLDTPCGHTFCYKCLRNFLQEKDFCPLDRKRLHFKLCKK (LNX2 RING domain (UniProt Q8N448)): 0
B3 (DZIP3 RING domain): 0
KLRKLKEAMLCMVCCEEEINSTFCPCGHTVCCESCAAQLQSCPVCRSRVEHVQHVY (MYLIP RING domain (UniProt Q8WY64)): 0
B4 (SYTL4 RING domain): 0
B5 (ZMIZ2 RING domain): 0
B6 (RFWD3 RING domain): 0
KETIKKTTKPCPRCHVPVEKNGGCMHMKCPQPQCRLEWCWNCGCEWNRVCMG (PRKN RING domain (UniProt O60260)): 0
NLSELTPYILCSICKGYLIDATTITECLHTFCKSCIVRHFYYSNRCPKCNIVVHQTQPLY (PCGF6 RING domain (UniProt Q9BYE7)): 0
AVPSGLEENLCKICMDSPIDCVLLECGHMVTCTKCGKRMNECPICRQYVIRAVHVF (RFFL RING domain (UniProt Q8WZ73)): 0
